Assay results of several laboratories.
Each numbered part is a random draw from the data of one study; scales do not carry over between parts. Substitutions count along the parent as printed.
UniProt Q712K3, sequence (whole entry, looked up): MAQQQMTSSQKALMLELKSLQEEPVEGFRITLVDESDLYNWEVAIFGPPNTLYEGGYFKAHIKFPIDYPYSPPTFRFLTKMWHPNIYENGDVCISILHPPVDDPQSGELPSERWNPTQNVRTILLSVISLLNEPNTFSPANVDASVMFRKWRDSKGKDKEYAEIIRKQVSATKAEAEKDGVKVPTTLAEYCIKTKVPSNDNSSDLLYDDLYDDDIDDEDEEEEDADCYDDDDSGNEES
UniProt Q9C0C9, sequence (whole entry, looked up): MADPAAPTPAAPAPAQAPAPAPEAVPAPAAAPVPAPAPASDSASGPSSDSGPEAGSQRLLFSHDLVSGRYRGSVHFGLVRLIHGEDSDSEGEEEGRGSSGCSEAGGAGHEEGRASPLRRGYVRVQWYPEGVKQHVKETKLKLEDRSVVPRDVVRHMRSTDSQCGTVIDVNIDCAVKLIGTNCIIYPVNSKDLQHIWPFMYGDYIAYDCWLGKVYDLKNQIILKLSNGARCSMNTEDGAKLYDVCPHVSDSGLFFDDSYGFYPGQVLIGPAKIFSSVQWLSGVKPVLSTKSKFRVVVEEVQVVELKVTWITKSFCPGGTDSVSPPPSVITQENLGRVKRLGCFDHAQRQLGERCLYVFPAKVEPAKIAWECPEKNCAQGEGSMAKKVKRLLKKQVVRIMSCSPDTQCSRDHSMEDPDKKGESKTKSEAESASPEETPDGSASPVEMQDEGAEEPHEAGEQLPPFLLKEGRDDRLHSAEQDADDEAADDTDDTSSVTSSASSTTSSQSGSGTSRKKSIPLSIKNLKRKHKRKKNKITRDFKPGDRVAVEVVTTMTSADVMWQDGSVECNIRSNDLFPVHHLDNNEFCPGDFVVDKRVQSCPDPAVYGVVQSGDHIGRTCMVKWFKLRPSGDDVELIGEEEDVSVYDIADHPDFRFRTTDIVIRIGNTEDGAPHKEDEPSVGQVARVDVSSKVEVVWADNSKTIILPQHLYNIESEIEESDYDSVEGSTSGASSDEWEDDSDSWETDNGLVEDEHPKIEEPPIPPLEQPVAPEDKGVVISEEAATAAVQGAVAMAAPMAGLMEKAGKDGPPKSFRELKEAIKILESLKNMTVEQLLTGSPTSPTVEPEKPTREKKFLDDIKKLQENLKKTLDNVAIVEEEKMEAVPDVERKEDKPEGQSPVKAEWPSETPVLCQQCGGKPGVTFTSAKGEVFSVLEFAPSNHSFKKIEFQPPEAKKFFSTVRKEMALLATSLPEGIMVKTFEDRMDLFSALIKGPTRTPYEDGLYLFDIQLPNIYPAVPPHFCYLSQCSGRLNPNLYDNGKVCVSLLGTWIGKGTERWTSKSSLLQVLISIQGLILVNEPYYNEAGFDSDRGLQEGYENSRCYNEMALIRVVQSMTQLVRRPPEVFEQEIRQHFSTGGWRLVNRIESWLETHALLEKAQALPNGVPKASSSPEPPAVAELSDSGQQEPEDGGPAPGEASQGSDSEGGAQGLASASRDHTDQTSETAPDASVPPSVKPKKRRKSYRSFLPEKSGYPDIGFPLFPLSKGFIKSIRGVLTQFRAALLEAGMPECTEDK
UniProt Q9NPD8, sequence (whole entry, looked up): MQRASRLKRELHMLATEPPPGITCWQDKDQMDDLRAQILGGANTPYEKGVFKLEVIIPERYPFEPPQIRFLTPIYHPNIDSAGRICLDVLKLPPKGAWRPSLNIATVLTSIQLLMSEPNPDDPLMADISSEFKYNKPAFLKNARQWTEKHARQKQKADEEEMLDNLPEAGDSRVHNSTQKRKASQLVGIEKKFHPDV
UniProt P51668, sequence (whole entry, looked up): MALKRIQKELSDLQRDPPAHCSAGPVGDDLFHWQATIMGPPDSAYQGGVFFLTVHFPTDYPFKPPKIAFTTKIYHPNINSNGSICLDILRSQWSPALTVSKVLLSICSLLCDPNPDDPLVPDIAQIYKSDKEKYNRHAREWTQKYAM
UniProt Q969T4, sequence (whole entry, looked up): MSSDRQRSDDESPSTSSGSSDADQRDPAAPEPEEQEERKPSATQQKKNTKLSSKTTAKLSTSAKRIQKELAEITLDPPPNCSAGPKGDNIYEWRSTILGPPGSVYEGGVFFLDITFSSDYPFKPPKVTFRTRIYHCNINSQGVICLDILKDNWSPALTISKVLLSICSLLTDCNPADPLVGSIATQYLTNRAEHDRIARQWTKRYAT
UniProt Q9H832, sequence (whole entry, looked up): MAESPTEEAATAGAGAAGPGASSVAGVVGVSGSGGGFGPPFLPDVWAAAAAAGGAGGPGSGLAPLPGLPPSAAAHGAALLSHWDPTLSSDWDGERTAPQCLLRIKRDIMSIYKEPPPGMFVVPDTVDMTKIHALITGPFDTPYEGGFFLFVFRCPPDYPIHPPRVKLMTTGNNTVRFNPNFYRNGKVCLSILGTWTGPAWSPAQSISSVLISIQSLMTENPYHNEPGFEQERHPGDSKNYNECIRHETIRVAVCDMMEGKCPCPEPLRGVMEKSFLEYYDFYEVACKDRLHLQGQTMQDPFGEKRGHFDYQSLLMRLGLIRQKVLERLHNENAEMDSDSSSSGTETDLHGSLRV
UniProt P62253, sequence (whole entry, looked up): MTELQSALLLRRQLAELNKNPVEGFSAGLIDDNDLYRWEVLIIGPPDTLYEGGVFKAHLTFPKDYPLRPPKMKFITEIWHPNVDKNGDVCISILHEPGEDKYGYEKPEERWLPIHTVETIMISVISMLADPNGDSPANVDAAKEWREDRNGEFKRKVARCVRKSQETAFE

Series 1 — method: yeast two-hybrid; matrix: yeast; setting: mostly zero background; reference: not given; reading: higher = stronger interaction
Molecule: LVKDFNPYITCYICKGYLIKPTTVTECLHTFCKTCIVQHFEDSNDCPRCGNQVHETNPLE (PCGF5 RING domain (UniProt Q86SE9))
target	lacZ reporter activity
BIRC6 UBC core domain (UniProt Q9NR09)	0
UBE2Z UBC core domain (UniProt Q9H832)	0
UBE2R2 UBC core domain (UniProt Q712K3)	0
UBE2O UBC core domain (UniProt Q9C0C9)	0
UBE2G1 UBC core domain (UniProt P62253)	0
UBE2E3 UBC core domain (UniProt Q969T4)	0
UBE2T UBC core domain (UniProt Q9NPD8)	0
UBE2D1 UBC core domain (UniProt P51668)	0

Series 2 — target: MAFF, bZIP domain (human); method: DHFR protein complementation; matrix: yeast; reference: wild-type JUN-FOS pair; reading: higher = stronger binding
Setting: single substitutions, most at no-binding floor
Starting sequence: JUN, bZIP domain (human); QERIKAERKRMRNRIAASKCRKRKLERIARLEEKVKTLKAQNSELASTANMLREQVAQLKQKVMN; partner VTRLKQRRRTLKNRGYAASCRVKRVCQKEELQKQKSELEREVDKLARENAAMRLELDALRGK
Variant	binding fitness
L38R	-1.46 natural log
I28P	-1.43 natural log
S47T	-1.3 natural log
V56S	-1.52 natural log
K34S	-1.51 natural log
L52I	-1.31 natural log
R53P	-1.51 natural log
V35K	-1.56 natural log
I28V	-1.33 natural log
A29W	-1.47 natural log
E44Q	-1.39 natural log
L52D	-1.51 natural log
K39F	-1.48 natural log
T37W	-1.29 natural log
L31Y	-1.33 natural log
Q41A	-1.4 natural log
K36H	-1.42 natural log
K34P	-1.53 natural log
T48I	-1.37 natural log
A49I	-1.33 natural log
V56L	-1.31 natural log
A40P	-1.47 natural log
E32T	-1.49 natural log
K36G	-1.49 natural log
A40Y	-1.4 natural log

Series 3 — target: CCND3, cyclin fold, Cln2 fusion (human); method: yeast growth competition, sequencing; matrix: yeast; setting: weak parent motif; reference: not given; reading: higher = stronger binding
Starting sequence: DNAH7 docking peptide (human); HELFQRLDFDNDG; partner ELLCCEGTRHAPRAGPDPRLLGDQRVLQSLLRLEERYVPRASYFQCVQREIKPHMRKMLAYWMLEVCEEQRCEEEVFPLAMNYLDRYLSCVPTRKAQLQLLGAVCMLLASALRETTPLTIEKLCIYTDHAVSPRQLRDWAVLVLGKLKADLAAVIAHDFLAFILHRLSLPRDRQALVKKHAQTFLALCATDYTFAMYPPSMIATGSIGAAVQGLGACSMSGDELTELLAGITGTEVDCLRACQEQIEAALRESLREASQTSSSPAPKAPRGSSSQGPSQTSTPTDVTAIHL
Variant	normalised enrichment score
AELFQRLDFDNDG [H1A]	-0.175
HELFQRLDFDNDA [G13A]	-0.33
HELAQRLDFDNDG [F4A]	-0.186
HEAFQRLDFDNDG [L3A]	-0.202
HELFQRADFDNDG [L7A]	-0.315
HELFQRLDFDNAG [D12A]	-0.0768
HELFQRLDADNDG [F9A]	-0.000274

Series 4 — method: protein-binding microarray; molecule type: double-stranded DNA, one strand shown; matrix: in vitro; concentration: 2540 nM top; setting: 60-bp whole probe; with: salmon DNA 0.4 mg/ml; reference: random background probes; reading: higher = stronger binding; constant ends, left off below: GCCTAGCAC … GTCTTGATTCGCTTGACGCTGCTG
Target: Interferon regulatory factor 3, full length, phosphomimetic (IRF3, Homo sapiens, UniProt Q14653, residues 1-427, S386D/S396D/S398D/S402D/T404D/S405D)
UniProt Q14653, sequence (whole entry, unmodified, looked up): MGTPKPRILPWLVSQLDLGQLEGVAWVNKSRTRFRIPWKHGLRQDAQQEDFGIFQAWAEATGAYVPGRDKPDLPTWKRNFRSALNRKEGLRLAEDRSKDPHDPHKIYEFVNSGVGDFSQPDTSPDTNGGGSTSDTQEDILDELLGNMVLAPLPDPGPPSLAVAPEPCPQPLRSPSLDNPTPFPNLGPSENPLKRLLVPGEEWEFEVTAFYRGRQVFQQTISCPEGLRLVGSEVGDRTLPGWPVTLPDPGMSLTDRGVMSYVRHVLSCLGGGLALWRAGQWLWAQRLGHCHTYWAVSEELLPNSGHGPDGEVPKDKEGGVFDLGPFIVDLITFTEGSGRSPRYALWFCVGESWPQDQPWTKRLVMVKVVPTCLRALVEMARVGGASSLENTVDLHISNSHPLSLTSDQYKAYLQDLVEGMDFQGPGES
Sequence	fitted relative affinity
GACGGTTTCGGTTTCGGAACGTGCTAG	11.8 z-score
TGTTTTTGCTTTCTTTATGCGTGCTAG	2.74 z-score
TTAGGTTTCGGTCTCGGTTAGTGCTAG	8.81 z-score
TTTCCACTTTCTTTTGCTTGGTGCTAG	5.74 z-score
ACTAGTTTCTTTTCTTTTCTGTGCTAG	7.32 z-score
TTAGGACTGGCCACTGGGTTAGTGCTA	-1.23 z-score
TTAGGTATCGGGACGGGGTTAGTGCTA	0.728 z-score
GACGGGCTCGGTCTCGGGACGTGCTAG	-0.402 z-score
GTGGAAATCAGTATGTTCCCGTGCTAG	0.129 z-score
AACGGACTGGGACTGGGGACGTGCTAG	-0.823 z-score
TTAGGTTTCCTCCTGCTTTAGTGCTAG	3.31 z-score
TTAGATTCCAGTTTCTATTAGTGCTAG	4.01 z-score
TTAGGTTCCGGTTTCCGTTAGTGCTAG	6.88 z-score
GACGAACAGAGTCTCGAGACGTGCTAG	-0.363 z-score
GACGGTCTCGGTCTCAGGACGTGCTAG	1.27 z-score
GACGGTGTCGGTTTCGGGACGTGCTAG	5.52 z-score
TCACCTGTACATCTATGACTGTGCTAG	0.177 z-score
TGCTATACCACTCTTGCTTTGTGCTAG	-0.114 z-score
GACGGTCTACTTTTCCTGACGTGCTAG	0.884 z-score

Excerpt of the above (series 4):
Sequence	fitted relative affinity
GACGGTTTCGGTTTCGGAACGTGCTAG	11.8 z-score
TGTTTTTGCTTTCTTTATGCGTGCTAG	2.74 z-score
TTAGGTTTCGGTCTCGGTTAGTGCTAG	8.81 z-score
TTTCCACTTTCTTTTGCTTGGTGCTAG	5.74 z-score
ACTAGTTTCTTTTCTTTTCTGTGCTAG	7.32 z-score
